# Experimental data collected from several papers.
# A part holds a random share of what one study measured. Changes are numbered by the printed parent chain.

# Block 1 — technique: protein binding microarray; form: double-stranded DNA, one strand shown; matrix: in vitro; concentration: not given; baseline: not given; reading: higher = stronger binding
# Target: Histone acetyltransferase KAT6A, winged helix 2, GST fusion (KAT6A, Homo sapiens, UniProt Q92794, residues 85-181)
# Notes: 8-mer, flanks averaged, mean of 2 arrays, mostly near background
# Construct (chain): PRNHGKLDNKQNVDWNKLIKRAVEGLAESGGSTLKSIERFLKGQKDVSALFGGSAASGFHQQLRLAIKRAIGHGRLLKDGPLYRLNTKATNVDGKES
Oligonucleotide,E-score
CCAACTCC,0.0325
AGATGAAG,-0.164
CGCCAGGA,0.173
GGGTGGAA,-0.126
ACATGTGG,-0.2
CCCAATCC,0.0484
CTACTTTC,-0.0729
CATAGTGA,-0.162
CACCGCAA,0.261
AATGGGCG,-0.127
GGTGAGTA,-0.0167
AGCAGCAT,0.092
CCATGCGG,0.16
CTACCTTC,-0.017
ACGCAGGC,0.156
CCCTCCGA,0.136
AACCGAGG,-0.0176
ACTTGCAA,0.058
CCTTCTCA,-0.091
GCTGCTAC,0.0206
AGCTCAGC,-0.084
AGGGACAA,0.0228
AACCCCGG,0.059
CCCATTAA,-0.145
CTCGGTGA,-0.00413

# Block 2 — target: UBE2S UBC core domain (UniProt Q16763); technique: yeast two-hybrid; matrix: yeast; notes: mostly zero background; baseline: not given; reading: higher = stronger interaction
# B1: MID2 RING domain (UniProt Q9UJV3); chain KMETLESELTCPICLELFEDPLLLPCAHSLCFSCAHRILVSSCSSGESIEPITAFQCPTCRYVISLNHRGL
# B2: RNF186 RING domain (UniProt Q9NXI6); chain HSGSTECDLECLVCREPYSCPRLPKLLACQHAFCAICLKLLLCVQDNTWSITCPLCRKVTAVPGGLI
# B3: RING1 RING domain (UniProt Q06587); chain SPRSLHSELMCPICLDMLKNTMTTKECLHRFCSDCIVTALRSGNKECPTCRKKLVSKRSLR
# B4: RUFY1 RING domain (UniProt Q96T51); chain QALKGHAWLKDDEATHCRQCEKEFSISRRKHHCRNCGHIFCNTCSSNELALPSYPKPVRVCDSCHTLLLQRCSSTAS
# B5: RNF6 RING domain (UniProt Q9Y252); chain NSIDSELGKICSVCISDYVTGNKLRQLPCMHEFHIHCIDRWLSENCTCPICRQPVLGSNIAN
# B6: ARIH2 RING domain (UniProt O95376); chain HVPTSHPPHHCAVCMQFVRKENLLSLACQHQFCRSCWEQHCSVLVKDGVGVGVSCMAQDCPLRTPEDFVF
# B7: TRIM41 RING domain (UniProt Q8WV44); chain PVQTLQEEAVCAICLDYFTDPVSIGCGHNFCRVCVTQLWGGEDEEDRDELDREEEEEDGEEE
# B8: VPS8 RING domain (UniProt Q8N3P4); chain TRGLNPKQDYCSICLQQYKRRQEMADEIIVFSCGHLYHSFCLQNKECTVEFEGQTRWTCYKCSSSNKVGKLSE
# B9: ZMYND11 RING domain (UniProt Q15326); chain DEIDWETENHDWYCFECHLPGEVLICDLCFRVYHSKCLSDEFRLRDSSSPWQCPVCRSIKKKNTNKQEM
# B10: TRIM11 RING domain (UniProt Q96F44); chain LSTNLQEEATCAICLDYFTDPVMTDCGHNFCRECIRRCWGQPEGPYACPECRELSPQRNLRP
# B11: RNF182 RING domain (UniProt Q8N6D2); chain AESQASDELECKICYNRYNLKQRKPKVLECCHRVCAKCLYKIIDFGDSPQGVIVCPFCRFETCLPDDEV
# Target sequence (chain): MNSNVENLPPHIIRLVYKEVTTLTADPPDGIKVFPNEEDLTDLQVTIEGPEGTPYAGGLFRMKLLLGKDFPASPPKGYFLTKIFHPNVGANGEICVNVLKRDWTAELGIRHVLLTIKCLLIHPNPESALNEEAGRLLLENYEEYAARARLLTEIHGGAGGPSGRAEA
Sequence,lacZ reporter activity
B1 (MID2 RING domain),0
LEALSSDFLACKICLEQLRAPKTLPCLHTYCQDCLAQLADGGRVRCPECRETVPVPPEGV (TRIM56 RING domain (UniProt Q9BRZ2)),0
B2 (RNF186 RING domain),0
B3 (RING1 RING domain),0
DDVLTKDAGECVICLEELLQGDTIARLPCLCIYHKSCIDSWFEVNRSCPEHPAD (ZNRF1 RING domain (UniProt Q8ND25)),0
B4 (RUFY1 RING domain),0
B5 (RNF6 RING domain),0
B6 (ARIH2 RING domain),0
FDPPLESKYECPICLMALREAVQTPCGHRFCKACIIKSIRDAGHKCPVDNEILLENQLFP (TRAF6 RING domain (UniProt Q9Y4K3)),0
B7 (TRIM41 RING domain),0
B8 (VPS8 RING domain),0
B9 (ZMYND11 RING domain),0
ASPKIFQKTKCSICNSALELPSVHFLCGHSFHQHCFESYSESDADCPTCLPENRKVMDMI (VPS11 RING domain (UniProt Q9H270)),0
B10 (TRIM11 RING domain),0
B11 (RNF182 RING domain),0

# Block 3 — target: CCND2, cyclin fold, Cln2 fusion (human); technique: yeast growth competition, sequencing; matrix: yeast; notes: weak parent motif; baseline: not given; reading: higher = stronger binding
# Parent: ORC1 docking peptide (human); PRARKRLELGNLG; partner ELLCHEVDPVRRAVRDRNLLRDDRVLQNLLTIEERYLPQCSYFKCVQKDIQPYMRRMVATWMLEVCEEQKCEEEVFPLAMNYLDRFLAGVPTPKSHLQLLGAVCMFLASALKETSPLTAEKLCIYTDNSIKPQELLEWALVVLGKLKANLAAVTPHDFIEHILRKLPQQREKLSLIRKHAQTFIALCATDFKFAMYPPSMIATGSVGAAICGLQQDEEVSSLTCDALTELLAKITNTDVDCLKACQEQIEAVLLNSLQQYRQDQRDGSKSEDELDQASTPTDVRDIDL
Change,normalised enrichment score
L9T,0.0594
K5D,0.238
G13N,-0.102
R2C,-0.194
G10W,0.458
L12G,0.0628
P1A,0.328
P1G,-0.194
L9M,0.29
R4I,0.101
R2N,0.365
L12Q,-0.0536
P1I,0.0678
N11P,0.338
G13S,0.23
P1D,0.708
L12D,-0.167
L12Y,-0.15

# Block 4 — technique: RNA Bind-n-Seq; form: RNA; matrix: in vitro; concentration: 365 nM; baseline: no-protein control; reading: higher = stronger binding
# Target: RNA binding protein fox-1 homolog 2, RRM domain, GST-SBP tag (RBFOX2, Homo sapiens, UniProt O43251-10, residues 100-194)
# Notes: natural RNA segment, single round, ends assumed
# Construct (chain): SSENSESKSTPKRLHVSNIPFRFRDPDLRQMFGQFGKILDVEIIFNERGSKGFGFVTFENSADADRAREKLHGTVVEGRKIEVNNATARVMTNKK
Oligonucleotide,RBNS enrichment (R)
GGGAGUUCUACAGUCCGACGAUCCAUAAGCUUUGAAUCCUGUAGUUACAGUGGCAUAAAGGACUGACAAAACCUGGAUAAGGAAAAACCUUUUUUUUCUAUGAAUUUUUUUUGUUUUUUAGGGGAAAGGGAUUUGGAAUUCUCGGGUGCCAA,0.733
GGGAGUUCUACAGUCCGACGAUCUCAGCGAUUCUUUGACUGCGGACCCUGUGGGAAACCCCGUCAAUAAAUGUUAAAGACACACUCCGAGGCAGCGUGGAUGUGGUUUGCUUUCACUCAACAGUAUGGCCCGCUGGAAUUCUCGGGUGCCAA,0.345
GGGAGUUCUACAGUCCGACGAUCAGUAAGGCCCACCUAUGCGGAUUGGGAGGCCUGGCCUCCUGACCCUCACAUCCACCCUCCGCCCUUCCAAUUGCGCUCCCGGUUUGCAGUAAGGAAGAGGGAAGCUGAAGUGGAAUUCUCGGGUGCCAA,0.359
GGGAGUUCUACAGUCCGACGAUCGUGGUUGAUUUCAAUACACUCAAGUGCCAUUCAUCCUUUAAGAAAAACAUCUGGAUAUCAAGGUGGAAAUGGCCCAUUUAAUGAUUGAUUAUAUCAUUUUGUGGAUAUAGUGGAAUUCUCGGGUGCCAA,0.283
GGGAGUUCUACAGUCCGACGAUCUCUUACUGUUUCUGUUUCACAUAGGGACAUUUAAAUCAAUGUCAAUGUGCGUCCAUGCUUGAGUGAGCAAGCCAGCGUCCUUGUCCUCCUGCAAUGCCUUUGGGAAGCUCUGGAAUUCUCGGGUGCCAA,0.386
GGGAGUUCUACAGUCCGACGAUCGUGGGCUGAAAAACGCCACACUCAUUUCAAGGGGCAAUGUCUGGGGUUUAGAAAUUCAUUUAUAACUGGUUCUCUGAUGUGGGAAAUCCUGAUUCUGUCCCGGGUUCUUUUGGAAUUCUCGGGUGCCAA,0.983
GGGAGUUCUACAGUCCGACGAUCUUCGCACAAUGGCAUUUGAACAAGGUGGCAAUCGGUUGGAGUAACAAACUCCCCCUUGCUGCUGCAGUUUCUCCUACCAGAAGUUUUUCUUUUCUUUUUUUAACCCUUACUGGAAUUCUCGGGUGCCAA,0.558
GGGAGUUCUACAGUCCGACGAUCUCCCCUACUACAGUUCUUGCUUCCAUGCAAGGUGAACCUGAGGGGAGGAAGGCGUGGCUCUCUGAAACCUUAACUGCAGAUGAAGUACAGUGGCAAGGAGGAGAGGGUGUUGGAAUUCUCGGGUGCCAA,0.25
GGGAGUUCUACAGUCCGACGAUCCCAAUACUACUGUGUGUACCAAGUGUGGAGGGGCUGGUCACAUUGCUUCUGAUUGCAAAUUUCAGAGGCCUGGCGACCCUCAGUCAGCUCAGGAUAAAGCACGGAUGGAUUGGAAUUCUCGGGUGCCAA,0.346
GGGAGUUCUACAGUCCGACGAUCGGCACGAAGAAAAGAAACAUGAGCUCUCUAGACUUCCUGUAUGUUCCCAACUGUUGGCUAGAUAAUCAUCUGAGGCUAUCAUUAUAGUGCUGAUGUCCAAGACUUAACCAUGGAAUUCUCGGGUGCCAA,0.461
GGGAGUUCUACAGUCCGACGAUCGUUCCUGCUGGGUGUGGUGGCGCAAGCCUUUAAUCCCUGCACUUGGGAGGCAGCUGCAGAUGGGAUUUCUGAGUUAAGGACAAGGUCUACAGAGUGAGUUCCAGGACAGCUGGAAUUCUCGGGUGCCAA,0.474
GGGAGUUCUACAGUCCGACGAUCUCAGAGCCAAGCCAGGGUUGGAGAAAACUGCAUUCCUACGAGGGUAAAAGUAGCUGCCCUCUUUGAUCCUUUCUUACUAGGCUUCAUGUGGGAUGGGAGAGGAUGUCCCCUGGAAUUCUCGGGUGCCAA,0.528

# Repeated from above (block 4):
Oligonucleotide,RBNS enrichment (R)
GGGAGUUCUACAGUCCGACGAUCAGUAAGGCCCACCUAUGCGGAUUGGGAGGCCUGGCCUCCUGACCCUCACAUCCACCCUCCGCCCUUCCAAUUGCGCUCCCGGUUUGCAGUAAGGAAGAGGGAAGCUGAAGUGGAAUUCUCGGGUGCCAA,0.359
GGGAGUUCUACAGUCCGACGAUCUCUUACUGUUUCUGUUUCACAUAGGGACAUUUAAAUCAAUGUCAAUGUGCGUCCAUGCUUGAGUGAGCAAGCCAGCGUCCUUGUCCUCCUGCAAUGCCUUUGGGAAGCUCUGGAAUUCUCGGGUGCCAA,0.386
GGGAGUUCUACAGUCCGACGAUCUUCGCACAAUGGCAUUUGAACAAGGUGGCAAUCGGUUGGAGUAACAAACUCCCCCUUGCUGCUGCAGUUUCUCCUACCAGAAGUUUUUCUUUUCUUUUUUUAACCCUUACUGGAAUUCUCGGGUGCCAA,0.558
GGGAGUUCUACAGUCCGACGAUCCCAAUACUACUGUGUGUACCAAGUGUGGAGGGGCUGGUCACAUUGCUUCUGAUUGCAAAUUUCAGAGGCCUGGCGACCCUCAGUCAGCUCAGGAUAAAGCACGGAUGGAUUGGAAUUCUCGGGUGCCAA,0.346
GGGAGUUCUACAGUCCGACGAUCCAUAAGCUUUGAAUCCUGUAGUUACAGUGGCAUAAAGGACUGACAAAACCUGGAUAAGGAAAAACCUUUUUUUUCUAUGAAUUUUUUUUGUUUUUUAGGGGAAAGGGAUUUGGAAUUCUCGGGUGCCAA,0.733
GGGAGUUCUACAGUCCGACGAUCUCAGAGCCAAGCCAGGGUUGGAGAAAACUGCAUUCCUACGAGGGUAAAAGUAGCUGCCCUCUUUGAUCCUUUCUUACUAGGCUUCAUGUGGGAUGGGAGAGGAUGUCCCCUGGAAUUCUCGGGUGCCAA,0.528
